Experimental data gathered from unrelated publications.
Compare with care: the assays were run in different laboratories. ± marks the error that the study gave.
NMBR: Neuromedin-B receptor (NMBR, Homo sapiens, UniProt P28336)
Sequence of UniProt P28336 (whole entry, looked up): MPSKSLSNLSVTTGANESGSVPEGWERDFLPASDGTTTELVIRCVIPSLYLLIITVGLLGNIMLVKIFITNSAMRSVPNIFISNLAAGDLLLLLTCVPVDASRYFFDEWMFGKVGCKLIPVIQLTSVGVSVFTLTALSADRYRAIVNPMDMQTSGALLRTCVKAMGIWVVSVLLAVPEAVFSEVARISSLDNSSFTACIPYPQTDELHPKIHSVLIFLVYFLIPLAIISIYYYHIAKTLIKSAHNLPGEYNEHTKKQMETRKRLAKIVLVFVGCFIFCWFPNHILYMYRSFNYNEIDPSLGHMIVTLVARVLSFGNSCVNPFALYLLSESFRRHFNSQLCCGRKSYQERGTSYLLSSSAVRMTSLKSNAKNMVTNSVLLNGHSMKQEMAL
SCTR: Secretin receptor (SCTR, Homo sapiens, UniProt P47872)
Sequence of UniProt P47872 (whole entry, looked up): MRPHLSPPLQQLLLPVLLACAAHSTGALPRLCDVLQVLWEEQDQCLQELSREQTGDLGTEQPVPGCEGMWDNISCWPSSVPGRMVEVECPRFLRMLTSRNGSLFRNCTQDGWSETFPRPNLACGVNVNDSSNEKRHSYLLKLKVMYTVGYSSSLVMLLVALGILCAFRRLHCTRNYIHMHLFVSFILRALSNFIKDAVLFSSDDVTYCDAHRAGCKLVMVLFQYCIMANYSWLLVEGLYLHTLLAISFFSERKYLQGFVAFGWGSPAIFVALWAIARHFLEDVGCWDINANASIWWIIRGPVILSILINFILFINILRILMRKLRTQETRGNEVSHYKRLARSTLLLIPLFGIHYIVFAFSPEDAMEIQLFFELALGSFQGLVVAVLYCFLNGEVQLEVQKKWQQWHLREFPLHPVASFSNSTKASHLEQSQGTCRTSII
LPAR2: Lysophosphatidic acid receptor 2 (LPAR2, Homo sapiens, UniProt Q9HBW0)
Sequence of UniProt Q9HBW0 (whole entry, looked up): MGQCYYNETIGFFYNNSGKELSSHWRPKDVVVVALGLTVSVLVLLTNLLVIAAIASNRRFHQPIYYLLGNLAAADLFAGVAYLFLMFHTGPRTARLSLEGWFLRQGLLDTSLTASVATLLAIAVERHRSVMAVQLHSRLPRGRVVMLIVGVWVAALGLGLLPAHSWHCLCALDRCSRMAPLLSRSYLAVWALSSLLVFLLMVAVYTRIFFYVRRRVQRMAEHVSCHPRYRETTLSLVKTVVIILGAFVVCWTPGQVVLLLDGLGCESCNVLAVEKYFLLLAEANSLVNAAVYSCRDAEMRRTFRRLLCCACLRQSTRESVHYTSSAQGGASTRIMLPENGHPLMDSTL
Sequence of UniProt P21917 (whole entry, looked up): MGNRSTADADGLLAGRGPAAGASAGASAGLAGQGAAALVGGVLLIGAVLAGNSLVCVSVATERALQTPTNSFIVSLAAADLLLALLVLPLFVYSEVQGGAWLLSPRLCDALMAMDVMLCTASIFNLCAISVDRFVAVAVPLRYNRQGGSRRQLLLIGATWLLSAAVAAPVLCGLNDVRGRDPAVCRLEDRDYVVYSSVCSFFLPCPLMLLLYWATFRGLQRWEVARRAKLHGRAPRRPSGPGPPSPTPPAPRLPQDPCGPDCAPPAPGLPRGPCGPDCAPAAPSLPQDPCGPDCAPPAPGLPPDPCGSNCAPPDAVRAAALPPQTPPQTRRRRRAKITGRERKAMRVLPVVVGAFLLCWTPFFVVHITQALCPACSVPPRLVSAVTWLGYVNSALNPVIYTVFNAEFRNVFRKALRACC
Sequence of UniProt P29994 (whole entry, looked up): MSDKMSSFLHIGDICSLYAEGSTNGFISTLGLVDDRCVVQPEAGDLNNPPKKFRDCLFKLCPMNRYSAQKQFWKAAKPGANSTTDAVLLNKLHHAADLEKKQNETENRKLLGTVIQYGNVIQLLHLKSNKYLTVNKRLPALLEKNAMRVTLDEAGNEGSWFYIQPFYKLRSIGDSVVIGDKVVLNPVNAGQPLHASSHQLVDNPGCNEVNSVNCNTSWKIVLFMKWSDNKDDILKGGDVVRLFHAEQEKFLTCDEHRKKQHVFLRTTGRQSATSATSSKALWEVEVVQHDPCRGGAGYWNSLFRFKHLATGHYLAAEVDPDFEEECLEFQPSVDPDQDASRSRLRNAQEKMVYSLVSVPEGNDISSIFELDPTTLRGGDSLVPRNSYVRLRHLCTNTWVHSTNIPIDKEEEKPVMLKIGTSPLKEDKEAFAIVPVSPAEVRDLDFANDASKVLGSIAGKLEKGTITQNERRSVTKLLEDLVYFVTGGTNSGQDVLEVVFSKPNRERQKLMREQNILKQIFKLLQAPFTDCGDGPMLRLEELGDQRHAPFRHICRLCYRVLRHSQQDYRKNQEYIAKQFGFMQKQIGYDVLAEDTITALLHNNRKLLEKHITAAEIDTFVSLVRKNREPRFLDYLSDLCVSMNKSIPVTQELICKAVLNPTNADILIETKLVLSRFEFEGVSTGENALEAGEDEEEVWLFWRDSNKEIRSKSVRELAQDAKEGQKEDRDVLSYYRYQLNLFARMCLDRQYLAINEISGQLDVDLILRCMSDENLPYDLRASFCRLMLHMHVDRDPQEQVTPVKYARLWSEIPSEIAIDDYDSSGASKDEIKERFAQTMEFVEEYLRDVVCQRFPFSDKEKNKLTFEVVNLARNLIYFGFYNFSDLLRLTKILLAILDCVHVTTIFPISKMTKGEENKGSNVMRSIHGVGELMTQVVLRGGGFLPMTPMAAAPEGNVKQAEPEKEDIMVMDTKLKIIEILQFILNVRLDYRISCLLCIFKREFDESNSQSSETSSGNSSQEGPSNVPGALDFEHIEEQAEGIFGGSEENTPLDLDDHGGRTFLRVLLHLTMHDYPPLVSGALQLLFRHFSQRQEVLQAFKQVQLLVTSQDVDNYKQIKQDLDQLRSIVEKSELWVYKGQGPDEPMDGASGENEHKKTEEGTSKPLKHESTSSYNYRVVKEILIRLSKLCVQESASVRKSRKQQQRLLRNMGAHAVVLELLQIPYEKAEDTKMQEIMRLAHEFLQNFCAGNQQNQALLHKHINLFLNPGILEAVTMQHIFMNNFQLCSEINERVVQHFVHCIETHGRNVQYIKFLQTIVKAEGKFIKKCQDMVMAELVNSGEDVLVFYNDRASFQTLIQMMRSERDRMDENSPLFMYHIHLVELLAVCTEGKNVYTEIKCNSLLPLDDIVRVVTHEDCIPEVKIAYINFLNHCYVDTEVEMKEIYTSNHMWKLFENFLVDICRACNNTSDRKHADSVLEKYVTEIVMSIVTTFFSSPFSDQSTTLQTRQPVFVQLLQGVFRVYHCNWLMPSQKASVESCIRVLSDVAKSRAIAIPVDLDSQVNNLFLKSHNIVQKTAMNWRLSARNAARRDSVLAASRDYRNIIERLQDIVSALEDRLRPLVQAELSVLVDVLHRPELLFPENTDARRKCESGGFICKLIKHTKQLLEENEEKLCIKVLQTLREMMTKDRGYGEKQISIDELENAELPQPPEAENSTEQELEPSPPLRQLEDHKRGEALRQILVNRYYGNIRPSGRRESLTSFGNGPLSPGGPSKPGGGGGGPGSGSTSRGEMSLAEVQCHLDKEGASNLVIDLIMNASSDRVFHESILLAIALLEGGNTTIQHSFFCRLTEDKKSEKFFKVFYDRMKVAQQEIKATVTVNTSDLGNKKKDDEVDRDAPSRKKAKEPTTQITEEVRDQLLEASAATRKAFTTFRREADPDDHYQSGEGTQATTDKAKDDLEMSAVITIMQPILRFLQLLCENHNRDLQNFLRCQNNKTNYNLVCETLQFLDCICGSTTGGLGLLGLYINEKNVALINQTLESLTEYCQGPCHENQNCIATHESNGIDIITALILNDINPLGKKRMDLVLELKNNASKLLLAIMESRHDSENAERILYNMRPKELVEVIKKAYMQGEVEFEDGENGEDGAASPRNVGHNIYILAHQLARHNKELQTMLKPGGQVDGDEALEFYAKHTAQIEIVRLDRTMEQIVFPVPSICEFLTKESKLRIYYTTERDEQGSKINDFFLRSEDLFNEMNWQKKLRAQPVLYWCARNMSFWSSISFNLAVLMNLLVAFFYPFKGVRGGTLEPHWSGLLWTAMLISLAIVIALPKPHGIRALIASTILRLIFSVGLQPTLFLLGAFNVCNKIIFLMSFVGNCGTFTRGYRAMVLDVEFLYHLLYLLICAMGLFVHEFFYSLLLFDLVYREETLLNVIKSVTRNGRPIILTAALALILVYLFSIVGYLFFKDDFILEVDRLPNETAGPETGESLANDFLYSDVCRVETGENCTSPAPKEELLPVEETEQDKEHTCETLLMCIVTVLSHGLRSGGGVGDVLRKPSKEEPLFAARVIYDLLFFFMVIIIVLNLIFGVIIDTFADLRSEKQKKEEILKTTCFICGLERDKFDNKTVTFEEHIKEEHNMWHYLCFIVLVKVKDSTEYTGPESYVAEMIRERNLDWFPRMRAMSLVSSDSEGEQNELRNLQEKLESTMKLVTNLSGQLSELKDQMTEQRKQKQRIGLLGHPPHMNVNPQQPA
Sequence of UniProt Q9QXV1 (whole entry, looked up): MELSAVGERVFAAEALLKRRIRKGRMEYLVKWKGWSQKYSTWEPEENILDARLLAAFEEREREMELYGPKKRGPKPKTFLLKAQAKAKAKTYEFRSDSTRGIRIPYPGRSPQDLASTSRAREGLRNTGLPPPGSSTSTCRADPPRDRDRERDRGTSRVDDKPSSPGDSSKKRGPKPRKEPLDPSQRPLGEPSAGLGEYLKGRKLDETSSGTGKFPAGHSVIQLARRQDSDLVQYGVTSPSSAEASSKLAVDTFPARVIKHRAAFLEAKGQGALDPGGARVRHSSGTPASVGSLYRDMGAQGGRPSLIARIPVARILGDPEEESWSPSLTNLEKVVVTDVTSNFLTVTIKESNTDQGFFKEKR
Sequence of UniProt O14842 (whole entry, looked up): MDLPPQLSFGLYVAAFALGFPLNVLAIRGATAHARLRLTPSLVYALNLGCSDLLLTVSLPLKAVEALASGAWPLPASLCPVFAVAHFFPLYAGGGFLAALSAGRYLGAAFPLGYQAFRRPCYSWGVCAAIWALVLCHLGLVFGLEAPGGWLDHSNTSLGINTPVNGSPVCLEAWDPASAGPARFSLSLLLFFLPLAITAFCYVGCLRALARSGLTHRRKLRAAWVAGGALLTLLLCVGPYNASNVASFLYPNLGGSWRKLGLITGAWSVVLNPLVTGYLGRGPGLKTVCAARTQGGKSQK

CC(C)(CS(=O)(=O)O)NC(=O)[N+](C)(C)CCO
EC50 (Gag-Pol polyprotein, integrase (gag-pol, Human immunodeficiency virus 1, UniProt P12497); integrase multimerization, activator, HTRF): 2 µM

CSCC[C@H](NC(=O)[C@H](Cc1ccccc1)NC(=O)[C@H](Cc1c[nH]cn1)NC(=O)CNC(=O)[C@@H](NC(=O)[C@H](C)NC(=O)[C@H](Cc1c[nH]c2ccccc12)NC(=O)[C@H](CC(C)C)NC(=O)[C@@H]1CCC(=O)N1)[C@@H](C)O)C(N)=O
EC50 (NMBR; inositol phosphate generation, agonist; NCI-H1299 expressing human NMBR; 45 min, 37 °C; reference: 1 µM neuromedin B): 0.00158 ± 5e-05 µM

COc1ccc(CNc2nc(-c3ccc(OC)c(OC)c3)cc(C(F)(F)F)n2)cc1
EC50 (SCTR; increase of tracer binding, TR-FRET; HEK293 membranes; with: Fluo-Sec 6 nM): 2.8 ± 2.6 µM

CN1CCC(NCCC2(Cc3ccc(Cl)cc3)CCCCC2)CC1
EC50 (BAM complex (Escherichia coli); OmpT folding, inhibitor; proteoliposomes; with: OmpT and SurA): 58.3 µM

O=P(O)(O)O[C@@H]1[C@@H](O)[C@H](O)[C@H](O)[C@H](O)[C@H]1OP(=O)(O)O
EC50 (Inositol 1,4,5-trisphosphate-gated calcium channel ITPR1 (Itpr1, Rattus norvegicus, UniProt P29994); calcium release, agonist; DT40 (permeabilised, IP3R1 wild type)): 5.01 µM

O=C1NC(=O)C(C2CCOc3cc(Oc4ccc(C(F)(F)F)cc4Cl)ccc32)S1 (centres unmarked)
EC50 (Free fatty acid receptor 1 (FFAR1, Homo sapiens, UniProt O14842); cAMP accumulation, agonist; COS-7, transiently transfected): > 10 µM

CCCCCCCC/C=C\CCCCCCCC(=O)O[C@@H]1C=CCO[C@H]1COP(=O)(O)S (some centres unmarked)
EC50 (LPAR2; G protein activation, agonist): 1.3 µM

COc1ccc(CNc2nc(-c3ccccc3OC)cc(C(F)(F)F)n2)cc1
EC50 (SCTR; increase of tracer binding, TR-FRET; HEK293 membranes; with: Fluo-Sec 6 nM): 2.5 ± 2.1 µM

CN(CCCC[C@H](NC(=O)[C@H](CCCN1CCOCC1)NC(=O)[C@@H](NC(=O)[C@H](Cc1ccccc1)NC(=O)c1ccc(C(C)(C)C)cc1)C1CCC1)C(=O)N[C@@H](CO)C(N)=O)C1CC2CCC1C2 (some centres unmarked)
EC50 (Chromobox protein homolog 8 (Cbx8, Mus musculus, UniProt Q9QXV1); reporter gene, activator; mouse embryonic stem cells; 48 h): > 100 µM

Cc1ccc(C(=O)NC[C@@H](C)N2CCCC2)cc1I
EC50 (D(4) dopamine receptor (DRD4, Homo sapiens, UniProt P21917); cAMP, agonist): 31.5 µM

COc1ccc(CCNc2nc(-c3ccccc3)cc(C(F)(F)F)n2)cc1OC
EC50 (SCTR; increase of tracer binding, TR-FRET; HEK293 membranes; with: Fluo-Sec 6 nM): 18 ± 23 µM

CCCCCCCC/C=C\CCCCCCCC(=O)O[C@H]1CCCO[C@H]1COP(=O)(O)S (some centres unmarked)
EC50 (LPAR2; G protein activation, agonist): 8.2 µM

COc1ccc(-c2cc(C(F)(F)F)nc(SCCC(=O)Nc3cc(F)ccc3F)n2)cc1
EC50 (SCTR; increase of tracer binding, TR-FRET; HEK293 membranes; with: Fluo-Sec 6 nM): 0.4 ± 0.2 µM

CCCC[C@H](NC(=O)[C@H](Cc1ccccc1)NC(=O)[C@H](Cc1c[nH]cn1)NC(=O)CCNC(=O)[C@@H](NC(=O)[C@H](C)NC(=O)[C@H](Cc1c[nH]c2ccccc12)NC(=O)[C@H](CCC(N)=O)NC(=O)[C@H](N)Cc1ccccc1)C(C)C)C(N)=O
EC50 (NMBR; inositol phosphate generation, agonist, [3H]inositol phosphate; BALB/3T3 cells expressing human NMBR; 45 min, 37 °C, with: NMB 1 µM; reference: NMB): 0.00015 ± 1e-05 µM

Repeated from above:
COc1ccc(CNc2nc(-c3ccc(OC)c(OC)c3)cc(C(F)(F)F)n2)cc1
EC50 (SCTR; increase of tracer binding, TR-FRET; HEK293 membranes; with: Fluo-Sec 6 nM): 2.8 ± 2.6 µM

O=P(O)(O)O[C@@H]1[C@@H](O)[C@H](O)[C@H](O)[C@H](O)[C@H]1OP(=O)(O)O
EC50 (Inositol 1,4,5-trisphosphate-gated calcium channel ITPR1 (Itpr1, Rattus norvegicus, UniProt P29994); calcium release, agonist; DT40 (permeabilised, IP3R1 wild type)): 5.01 µM
